Measured values gathered from unrelated publications.
Lines come from different studies, so protocols differ.
MAPK8: Mitogen-activated protein kinase 8 (MAPK8, Homo sapiens, UniProt P45983)
UniProt P45983, sequence (whole entry, looked up): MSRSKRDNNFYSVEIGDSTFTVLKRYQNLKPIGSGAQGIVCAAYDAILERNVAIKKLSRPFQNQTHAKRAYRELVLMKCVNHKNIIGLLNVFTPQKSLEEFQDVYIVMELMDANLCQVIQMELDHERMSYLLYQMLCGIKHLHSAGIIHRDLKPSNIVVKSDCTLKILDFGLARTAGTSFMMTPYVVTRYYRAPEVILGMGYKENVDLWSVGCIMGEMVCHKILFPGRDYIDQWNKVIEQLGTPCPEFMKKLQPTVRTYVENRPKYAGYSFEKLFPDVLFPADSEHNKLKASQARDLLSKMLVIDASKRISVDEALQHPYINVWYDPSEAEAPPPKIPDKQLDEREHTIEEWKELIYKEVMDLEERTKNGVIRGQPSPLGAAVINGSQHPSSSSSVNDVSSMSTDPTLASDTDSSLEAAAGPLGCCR
IL1RL2: Interleukin-1 receptor-like 2 (IL1RL2, Homo sapiens, UniProt Q9HB29)
UniProt Q9HB29, sequence (whole entry, looked up): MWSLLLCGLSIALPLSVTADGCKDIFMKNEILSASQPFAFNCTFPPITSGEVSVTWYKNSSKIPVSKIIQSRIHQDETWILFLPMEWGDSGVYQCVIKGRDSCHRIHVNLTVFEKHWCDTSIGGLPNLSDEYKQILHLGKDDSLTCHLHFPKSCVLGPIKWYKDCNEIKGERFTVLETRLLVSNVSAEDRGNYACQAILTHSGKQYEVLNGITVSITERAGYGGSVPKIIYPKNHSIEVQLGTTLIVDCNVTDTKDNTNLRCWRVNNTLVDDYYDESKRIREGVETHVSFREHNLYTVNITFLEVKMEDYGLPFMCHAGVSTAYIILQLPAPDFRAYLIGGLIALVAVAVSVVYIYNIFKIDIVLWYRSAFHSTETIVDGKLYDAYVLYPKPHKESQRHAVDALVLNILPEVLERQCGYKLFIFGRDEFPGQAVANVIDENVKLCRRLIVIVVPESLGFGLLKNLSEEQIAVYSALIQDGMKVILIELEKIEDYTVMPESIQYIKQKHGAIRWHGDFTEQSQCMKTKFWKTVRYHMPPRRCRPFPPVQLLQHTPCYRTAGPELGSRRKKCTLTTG
UniProt O75417, sequence (whole entry, looked up): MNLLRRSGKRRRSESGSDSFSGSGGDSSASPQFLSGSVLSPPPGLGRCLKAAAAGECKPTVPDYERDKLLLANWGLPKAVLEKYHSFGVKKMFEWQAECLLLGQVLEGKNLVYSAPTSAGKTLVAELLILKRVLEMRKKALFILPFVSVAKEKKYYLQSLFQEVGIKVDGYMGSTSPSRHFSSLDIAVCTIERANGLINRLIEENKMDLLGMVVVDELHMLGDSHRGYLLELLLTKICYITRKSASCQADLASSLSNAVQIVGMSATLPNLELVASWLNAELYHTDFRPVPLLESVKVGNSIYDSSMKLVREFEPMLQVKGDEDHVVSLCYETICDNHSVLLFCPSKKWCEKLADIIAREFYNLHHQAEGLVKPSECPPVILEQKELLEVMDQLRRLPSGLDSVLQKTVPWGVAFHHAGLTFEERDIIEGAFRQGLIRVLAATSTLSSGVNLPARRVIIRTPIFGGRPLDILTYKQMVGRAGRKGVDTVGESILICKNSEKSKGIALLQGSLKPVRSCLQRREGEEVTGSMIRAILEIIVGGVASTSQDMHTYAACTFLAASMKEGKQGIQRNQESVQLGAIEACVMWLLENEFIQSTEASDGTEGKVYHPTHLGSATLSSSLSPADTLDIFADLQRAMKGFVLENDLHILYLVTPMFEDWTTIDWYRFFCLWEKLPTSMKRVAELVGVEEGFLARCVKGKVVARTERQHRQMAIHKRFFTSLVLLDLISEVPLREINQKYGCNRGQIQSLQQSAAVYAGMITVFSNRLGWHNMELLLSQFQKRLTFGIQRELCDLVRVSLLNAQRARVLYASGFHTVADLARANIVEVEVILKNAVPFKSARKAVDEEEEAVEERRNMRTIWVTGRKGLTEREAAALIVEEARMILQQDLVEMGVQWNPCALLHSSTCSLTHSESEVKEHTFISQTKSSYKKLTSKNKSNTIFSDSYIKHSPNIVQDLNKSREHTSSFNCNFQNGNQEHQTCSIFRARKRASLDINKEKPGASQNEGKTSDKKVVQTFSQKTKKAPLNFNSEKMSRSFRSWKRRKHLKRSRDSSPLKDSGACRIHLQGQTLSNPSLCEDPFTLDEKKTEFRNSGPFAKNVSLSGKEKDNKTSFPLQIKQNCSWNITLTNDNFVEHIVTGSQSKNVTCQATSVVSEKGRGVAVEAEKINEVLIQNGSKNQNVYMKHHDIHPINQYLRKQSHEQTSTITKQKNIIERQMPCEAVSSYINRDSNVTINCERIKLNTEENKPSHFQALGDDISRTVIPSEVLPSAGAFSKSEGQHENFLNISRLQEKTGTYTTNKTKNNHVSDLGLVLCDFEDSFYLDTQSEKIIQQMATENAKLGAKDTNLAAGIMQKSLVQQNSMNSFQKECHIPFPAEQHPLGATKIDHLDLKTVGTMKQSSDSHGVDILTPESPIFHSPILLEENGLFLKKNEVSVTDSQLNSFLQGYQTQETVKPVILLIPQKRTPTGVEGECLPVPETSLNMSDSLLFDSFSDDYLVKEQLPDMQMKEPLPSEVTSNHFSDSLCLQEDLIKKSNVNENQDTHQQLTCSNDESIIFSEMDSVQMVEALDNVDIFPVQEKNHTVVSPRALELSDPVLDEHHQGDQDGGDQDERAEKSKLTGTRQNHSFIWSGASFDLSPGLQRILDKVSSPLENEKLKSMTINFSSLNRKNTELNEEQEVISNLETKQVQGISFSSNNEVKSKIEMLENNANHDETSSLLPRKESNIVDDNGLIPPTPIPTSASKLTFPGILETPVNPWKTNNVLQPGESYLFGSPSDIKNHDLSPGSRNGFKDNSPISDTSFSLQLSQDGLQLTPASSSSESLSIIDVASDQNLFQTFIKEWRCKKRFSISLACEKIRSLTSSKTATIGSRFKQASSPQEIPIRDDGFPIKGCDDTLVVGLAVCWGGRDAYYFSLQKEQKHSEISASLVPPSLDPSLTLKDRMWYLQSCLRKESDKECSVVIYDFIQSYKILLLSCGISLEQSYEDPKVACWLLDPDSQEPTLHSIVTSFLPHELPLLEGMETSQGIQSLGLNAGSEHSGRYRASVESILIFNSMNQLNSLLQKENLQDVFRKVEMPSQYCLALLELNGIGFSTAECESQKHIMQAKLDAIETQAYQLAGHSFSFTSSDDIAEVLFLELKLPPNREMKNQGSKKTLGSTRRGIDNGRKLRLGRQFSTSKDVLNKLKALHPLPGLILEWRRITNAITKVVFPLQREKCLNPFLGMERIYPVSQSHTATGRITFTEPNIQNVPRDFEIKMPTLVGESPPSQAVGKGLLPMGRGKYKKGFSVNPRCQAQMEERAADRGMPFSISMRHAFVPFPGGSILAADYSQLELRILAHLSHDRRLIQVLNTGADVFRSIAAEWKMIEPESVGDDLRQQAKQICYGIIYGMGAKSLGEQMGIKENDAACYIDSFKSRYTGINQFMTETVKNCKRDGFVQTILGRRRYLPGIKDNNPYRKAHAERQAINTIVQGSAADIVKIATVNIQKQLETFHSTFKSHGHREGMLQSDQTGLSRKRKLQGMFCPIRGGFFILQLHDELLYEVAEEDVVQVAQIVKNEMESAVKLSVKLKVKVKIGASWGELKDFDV
UniProt Q9NRR2, sequence (whole entry, looked up): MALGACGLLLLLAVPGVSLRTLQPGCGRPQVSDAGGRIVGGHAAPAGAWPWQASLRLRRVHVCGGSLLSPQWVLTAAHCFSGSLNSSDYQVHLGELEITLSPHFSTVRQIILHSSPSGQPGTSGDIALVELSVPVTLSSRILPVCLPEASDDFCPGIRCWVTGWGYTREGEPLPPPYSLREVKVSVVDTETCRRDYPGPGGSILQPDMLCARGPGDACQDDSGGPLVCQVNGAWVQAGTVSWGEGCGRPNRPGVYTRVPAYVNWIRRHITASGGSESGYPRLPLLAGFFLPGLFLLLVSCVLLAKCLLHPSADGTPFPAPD
UniProt Q8TD08, sequence (whole entry, looked up): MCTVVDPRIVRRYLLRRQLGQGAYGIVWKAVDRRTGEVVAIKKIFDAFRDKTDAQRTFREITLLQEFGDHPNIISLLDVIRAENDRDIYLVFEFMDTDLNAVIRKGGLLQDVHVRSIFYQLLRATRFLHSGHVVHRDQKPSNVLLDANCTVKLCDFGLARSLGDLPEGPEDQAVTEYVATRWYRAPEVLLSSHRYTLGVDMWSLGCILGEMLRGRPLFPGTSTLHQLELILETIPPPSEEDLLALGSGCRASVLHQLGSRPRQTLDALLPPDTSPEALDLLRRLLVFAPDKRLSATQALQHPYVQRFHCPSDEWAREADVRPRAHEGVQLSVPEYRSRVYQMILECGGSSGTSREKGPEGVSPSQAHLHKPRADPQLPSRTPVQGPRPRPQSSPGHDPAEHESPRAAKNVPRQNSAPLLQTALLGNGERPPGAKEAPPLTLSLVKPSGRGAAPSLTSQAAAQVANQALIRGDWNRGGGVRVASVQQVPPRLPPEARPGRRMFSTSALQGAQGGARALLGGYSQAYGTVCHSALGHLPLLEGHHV

For `N#CCNC(=O)c1ccc([C@H]2[C@@H](F)[C@@H](F)C[C@@H](F)[C@H]2F)cc1`, the hepatic clearance was 11 mL/min/kg (liver microsome stability; dog liver microsomes; 1 µM).
The remaining activity of `COC(=O)[C@@]1(C(C)C)C=C(C(=O)Nc2cccc(C(=O)Nc3ccc(Nc4nccc(-c5cccnc5)n4)c(C)c3)c2)C(=O)CC1` is reported as 0.392 (MAPK8; kinase activity, inhibitor; 1.646 µM, unit not given, with: 10 mM glutathione; relative to: no inhibitor).
`CC(C)[C@@H]1NC(=O)[C@H](Cc2ccccc2)NC(=O)CSC[C@@H](C(N)=O)NC(=O)[C@H](CCC(=O)O)NC(=O)[C@H](CO)NC(=O)[C@H](Cc2c[nH]c3cccc(Cl)c23)NC(=O)[C@H](C2CCCCC2)NC(=O)[C@H](C(C)C)NC(=O)[C@H](Cc2ccc(O)cc2)NC(=O)[C@H](CC(=O)O)NC(=O)[C@H](Cc2c[nH]c3ccccc23)NC(=O)[C@H](Cc2ccc(N)nc2)NC(=O)[C@H](Cc2c[nH]c3ccc(Cl)cc23)NC(=O)[C@H](CCC(=O)O)NC1=O` has a remaining activity of 90.6% (IL1RL2; reporter gene (SEAP), inhibitor, HEK-Blue IL-36R reporter; HEK-Blue IL-36R cells; 1.23 µM, 6 h, with: IL-36β 10 ng/mL).
`Cc1cccc(-c2ccc3nc(NC(=O)C4CCOCC4)nn3c2)c1` gave a remaining activity of 83% (MAPK15 (Homo sapiens, UniProt Q8TD08); enzyme activity, Dundee kinase panel; 10 µM).
For `COc1ccccc1-c1ccncc1C(=O)Nc1nnc(OCc2ccc(Cl)cc2)s1`, the remaining activity was 84% (DNA polymerase theta, helicase domain (POLQ, Homo sapiens, UniProt O75417); ATPase activity, ADP-Glo; 0.004 µM, with: ATP 100 µM).
For `COC(=O)[C@@]1(C)C=C(C(=O)Nc2cccc(C(=O)Nc3ccc(Nc4nccc(-c5cccnc5)n4)c(C)c3)c2)C(=O)CC1`, the remaining activity was 1.03 (MAPK8; enzyme activity, inhibitor; 2.79e-05 µM, 0 h, unit not given, with: GSH 10 mM pre-incubation; relative to: vehicle).
With `O=C=[N][Ru-4]123([n]4c5ccc(O)cc5c5c6c(c7cc(F)c[n+]1c7c54)C(=O)NC6=O)[S+]1CC[S+]2CC[S+]3CC1` (centres unmarked) the remaining activity was 99% (ABL1 (Homo sapiens, UniProt P00519, H396P); enzyme activity; 100 nM, human enzyme, with: 10 µM ATP; relative to: untreated).
`N#Cc1cnc2sc(C(=O)O)cc2c1N1CCc2[nH]nc(C(=O)N[C@@H](CC(=O)NCCOCCN3CCOCC3)c3cccc(Br)c3)c2C1` has a remaining activity of 82.5% (IL1RL2; reporter gene (SEAP), inhibitor, HEK-Blue IL-36R reporter; HEK-Blue IL-36R cells; 0.41 µM, 6 h, with: IL36G 0.01 ng/mL).
The remaining activity of `C[C@](C(=O)NC1CCOCC1)(c1cncnc1)N(C(=O)[C@H](F)Cl)c1ccc(OC(F)(F)Cl)cc1` is reported as 111% (Tryptase gamma (Homo sapiens, UniProt Q9NRR2); enzyme activity, inhibitor; 10 µM).
The hepatic clearance of `O=C(CC(F)(F)F)Nc1ccc(C2CCCCC2)cc1` is reported as 19 mL/min/kg (hepatocyte stability; cryopreserved human hepatocytes; 1 µM).
The remaining activity of `COc1ccc(NC(=O)Nc2ccc3c(c2)C(=O)N(C(C)CO)CC(C)C(CN(C)Cc2ccc4c(c2)OCO4)O3)cc1` (centres unmarked) is reported as 106% (ABL1 (Homo sapiens, UniProt P00519, Y253F); kinase activity; 0.03 µM; relative to: control).
